Results of several laboratories.
Compare with care: the assays were run in different laboratories. Values joined by “and” are separate records of one study, mostly repeats; a detail may differ. ± marks the error that the study gave.

`C=C[C@@H]1C[C@]1(NC(=O)[C@@H]1C[C@@H](Oc2ncc(OC)c3ccc(Cl)cc23)CN1C(=O)[C@@H](NC(=O)OC(C)(C)C)C(C)(C)C)C(=O)NS(=O)(=O)C1CC1` gave a CL/F ratio of 0.74 fold (human; oral, time-varying AST 115 U/L; baseline: median baseline AST).
The concentration of `S=C(NCCCc1c[nH]cn1)NCCCN(Cc1ccc(Cl)c(Cl)c1)c1ccc(Br)cn1` is reported as 2390 ng/mL (male C57BL/6 mouse, plasma; intraperitoneal, 30 mg/kg, 4 h).
`O=C([O-])CN1CCN(CC(=O)[O-])CCN(CC(=O)[O-])C(Cc2ccc([N+](=O)[O-])cc2)CN(CC(=O)[O-])CC1.[67Ga+3]` (stereo not shown) — result for “intact radiolabelled complex”: 97.6 ± 0.3% (RP-TLC; murine plasma; 3 h, 37 °C, 5% CO2).
With `C#C[C@]1(CO)O[C@@H](n2cnc3c(N)nc(F)nc32)C[C@@H]1O` the AUC(0-168 h) was 0.867 µM·h (human, plasma; oral, 10 mg once weekly, week 3).
With `CCCC[C@H](NC(C)=O)C(=O)N[C@H]1CCC(=O)NC[C@@H](C(=O)N[C@@H](Cc2c[nH]c3ccccc23)C(N)=O)NC(=O)[C@H](CCCNC(=N)N)NC(=O)[C@@H](Cc2ccccc2)NC(=O)[C@H](Cc2c[nH]cn2)NC1=O` the CL/F was 298 mL/min (healthy human, both sexes, plasma; subcutaneous, 3.0 mg once daily, day 1, arithmetic mean).
The Tmax of `COc1cccc2c1C(=O)c1c(O)c3c(c(O)c1C2=O)C[C@@](O)(C(=O)CO)C[C@@H]3O[C@H]1C[C@H](N)[C@H](O)[C@H](C)O1` is reported as 0.5 h (mouse, E0771 tumour-bearing, kidney; intravenous, 92 µmol/kg).
Under “median serum concentration”, `C[C@]12CC[C@@H]3c4ccc(O)cc4CC[C@H]3[C@@H]1C[C@@H](O)[C@@H]2O` is recorded as 0.0141 ng/mL (GC-MS; breast cancer women on NSAI, serum; vaginal, 0.03 mg, 1 h, day 0).
The dose-normalized AUC(0-t) of `[2H]C([2H])([2H])Oc1cc2c(cc1OC([2H])([2H])[2H])C1CC(=O)C(CC(C)C)CN1CC2` (stereo not shown) is reported as 19.1 ng·h/mL (item: deuterated total (α+β)-HTBZ; healthy human volunteers, plasma; oral, 6 mg single dose, standard meal).
`CC[C@H](C)[C@H](NC(=O)[C@H](CC(C)C)NC(=O)[C@H](Cc1c[nH]c2ccccc12)NC(=O)[C@H](C)NC(=O)[C@@H](NC(=O)[C@H](Cc1ccccc1)NC(=O)[C@H](CC(=O)O)NC(=O)[C@H](CCCNC(=N)N)NC(=O)[C@H](C)NC(=O)[C@H](C)NC(=O)[C@H](CC(C)C)NC(=O)[C@H](C)NC(=O)[C@H](CC(=O)O)NC(=O)[C@H](CC(C)C)NC(=O)[C@@H](NC(=O)[C@@H](NC(=O)[C@H](C)NC(=O)[C@H](CC(C)C)NC(=O)[C@H](CCC(=O)O)NC(=O)[C@H](CO)NC(=O)[C@H](CO)NC(=O)[C@H](Cc1ccccc1)NC(=O)[C@@H](NC(=O)CNC(=O)[C@H](CCC(=O)O)NC(=O)CNC(=O)[C@@H](N)Cc1cnc[nH]1)[C@@H](C)O)[C@@H](C)O)[C@@H](C)CC)[C@@H](C)CC)C(=O)N[C@@H](C)C(=O)N[C@H](C(=O)N[C@@H](CCCCN)C(=O)N[C@H](C(=O)N[C@H](C(=O)N[C@@H](CC(=O)O)C(=O)N[C@@H](CCCCN)C(=O)N[C@@H](CCCCN)C(=O)N[C@@H](CCCCN)C(=O)N[C@@H](CCCCN)C(=O)N[C@@H](CCCCN)C(=O)N[C@@H](CCCCN)C(N)=O)[C@@H](C)O)[C@@H](C)CC)[C@@H](C)O`: “share of total exposure” 92% (healthy human subjects, plasma; intravenous infusion, 1 mg glepaglutide; baseline: sum of parent and metabolites).
`Cc1ccc(NC(=O)c2ccc(CN3CCN(C)CC3)cc2)cc1Nc1nccc(-c2cncc(-c3oncc3C)c2)n1` gave an AUC(0-tau) of 25400 ng·h/mL (healthy volunteers, plasma; oral, 25.0 mg once daily, day 7, 7-day dosing, mean).
The median concentration of `COc1ccc(C(=O)O)cc1OS(=O)(=O)O` is reported as 18.8 nM (human, fasted baseline, cerebrospinal fluid).
With `CCCOc1ccc([C@H]2CNC(=O)N2c2ccc3[nH]cnc3c2)cc1` the AUC(0-inf) was 8580 ng·h/mL (human, plasma; oral, 800 mg, single dose, fasted).
With `Nc1nc(NC2CC2)c2ncn([C@H]3C=C[C@@H](CO)C3)c2n1` the CL/F was 22.1 mL/min/kg (HIV-infected children and adolescents, Tanner stage 1-2, plasma; oral, 8 mg/kg).
For `CNC(=O)c1cc(Oc2ccc(NC(=O)Nc3ccc(Cl)c(C(F)(F)F)c3)c(F)c2)ccn1`, the AUC(0-24h) change was -3.9% (human; oral, dose not given, together with: esomeprazole concomitant; baseline: without esomeprazole).
`CN[C@H]1C(=O)N[C@@H]2Cc3ccc(cc3)Oc3cc4cc(c3O[C@@H]3O[C@H](C(=O)O)[C@@H](O)[C@H](O)[C@H]3NC(=O)CCCCCCCCC(C)C)Oc3ccc(cc3Cl)[C@@H](O)[C@@H]3NC(=O)[C@H](NC(=O)[C@@H]4NC(=O)[C@@H](NC2=O)c2cc(cc(O)c2Cl)Oc2cc1ccc2O)c1ccc(O)c(c1)-c1c(O[C@H]2O[C@H](CO)[C@@H](O)[C@H](O)[C@@H]2O)cc(O)cc1[C@@H](C(=O)NCCCN(C)C)NC3=O` gave a non-renal clearance of 0.031 L/h (population PK model; human patients; intravenous, 1500 mg).
For `C[C@@H]1O[C@@H](OC[C@H]2O[C@@H](Oc3c(-c4ccc(OCCO)c(OCCO)c4)oc4cc(OCCO)cc(O)c4c3=O)[C@H](O)[C@@H](O)[C@@H]2O)[C@H](O)[C@H](O)[C@H]1O`, the EC20 was over 400 µM (cytochrome c release, ELISA; BALB/cByJ female mouse liver mitochondria; 30 min; baseline: alamethicin maximal release).
For `O=C(c1cccnc1-c1ccncc1)N1CCC(O)(Cc2ccccc2)CC1`, the Vd/F was 732 L (human, plasma; oral, 300 mg, multiple doses, once daily, healthy volunteers).
The EC20 of `CCCOC(=O)c1ccc(O)cc1` is reported as over 800 µM (cytochrome c release, ELISA; BALB/cByJ female mouse liver mitochondria; 30 min; baseline: alamethicin maximal release).
`O=C(Cc1cccc(OC(F)(F)F)c1)Nc1ccc(CCCCc2nnc(NC(=O)Cc3ccccn3)s2)nn1` has an AUC(0-8h) of 5070 ng·h/mL (non-compartmental analysis; human; oral, 1000 mg twice daily, fed, steady state, cycle 1 day 15).
With `CC(C)(C)c1nn(-c2cc(OCc3cn(Cc4cccc(C(F)(F)F)c4)nn3)c(Cl)cc2Cl)c(=O)o1` the IC50 was < 2.5 µM and 1.4 µM (Toxoplasma gondii; intracellular parasite growth, luminescence; HFF, wild type, NanoLuc reporter; 96 h).
`Oc1cc(O)cc(O)c1` has an EC20 of over 800 µM (mitochondrial swelling; BALB/cByJ female mouse liver mitochondria; 30 min, together with: succinate + rotenone; baseline: CaCl2 maximal swelling).
For `CCCC[C@@H]1NC(=O)[C@@H](NC(=O)[C@H](CCC(=O)O)NC(=O)CNC(=O)CN2CCN(CC(=O)O)CCN(CC(=O)O)CCN(CC(=O)O)CC2)CCCCNC(=O)C[C@@H](C(N)=O)NC(=O)[C@H](C(C)C)NC(=O)[C@@H]2CCCN2C(=O)[C@H](CCCNC(=N)N)NC(=O)CNC(=O)[C@H](Cc2c[nH]c3ccccc23)NC(=O)[C@H](CCCNC(=N)N)NC(=O)[C@@H](Cc2ccccc2)NC(=O)[C@H](Cc2c[nH]cn2)NC(=O)[C@H](CCC(=O)O)NC1=O` [indium-111 labelled], the tissue uptake was 0.03 ± 0.02 %ID/g (C57 mice, B16/F10 lung metastatic melanoma, muscle; intravenous, 0.037 MBq, 24 h).
For `NCCCC[C@@H]1NC(=O)[C@@H](Cc2c[nH]c3ccccc23)NC(=O)[C@H](c2ccccc2)NC(=O)[C@@H]2C[C@@H](OC(=O)NCCN)CN2C(=O)[C@H](Cc2ccccc2)NC(=O)[C@H](Cc2ccc(OCc3ccccc3)cc2)NC1=O`, the alpha half-life was 2.2 ± 0.6 h (radioimmunoassay; healthy human male volunteers, plasma; subcutaneous, 600 µg).
With `O=C(O)c1ccccc1O` the EC20 was over 400 µM (mitochondrial swelling; BALB/cByJ female mouse liver mitochondria; 30 min, together with: succinate + rotenone; baseline: CaCl2 maximal swelling).
For `CN[C@H]1CN(c2ccc3c(=O)c(C(=O)O)cn(-c4nccs4)c3n2)C[C@@H]1OC`, “mean residence time” read 34.4 h (human patients, plasma; intravenous, 9 to 50 mg/m^2 twice weekly, day 4, cycle 1, mean, noncompartmental).
For `Polymyxin B`, the clearance was 17.2 ± 8.5 mL/min (plasma; 5 µg/mL, blood flow 100 mL/min, dialysate flow 4800 mL/h).
With `CC(=O)N[C@@H](Cc1ccccc1)C(=O)N[C@H]1CCCNC(=O)[C@H](CCCNC(=N)N)NC(=O)[C@H](Cc2c[nH]c3ccccc23)NC(=O)[C@@H](CC2CCCCC2)NC(=O)[C@@H]2CCCN2C1=O` the elimination half-life was 0.324 h (C57BL/6J mice, plasma; subcutaneous, 1 mg/kg).
`COc1ccnc(CS(=O)(=O)c2nc3ccc(OC(F)F)cc3[nH]2)c1OC` — result for AUC(0-last), dose-normalized: “increased” (obese children with GERD; oral, pantoprazole, single dose; baseline: CYP2C19 poor over non-poor metabolizers).
The Tmax of `Cc1nc2cccc(OCC(C)(C)C(=O)NC(C)C)c2c(N)c1C(=O)O` is reported as 3 h (male Sprague-Dawley rat, plasma; dietary, 30 mg/kg/day, day 7).
Under “log intrinsic permeability”, `CN1CCN(CCCN2c3ccccc3Sc3ccc(C(F)(F)F)cc32)CC1` is recorded as -3 (in situ brain perfusion; rat; no efflux inhibition).
With `CC(C)C[C@H](NC(=O)CNC(=O)c1cc(Cl)ccc1Cl)B(O)O` the C0 was 7.43 ng/mL (human, plasma; intravenous bolus, 0.125 mg/m^2, day 1).
`CC(C)[C@H](NC(=O)[C@@H]1CCCN1C(=O)[C@H](CCCNC(=N)N)NC(=O)[C@H](CS)NC(=O)[C@H](Cc1c[nH]c2ccccc12)NC(=O)[C@H](CCCNC(=N)N)NC(=O)[C@@H](Cc1ccccc1)NC(=O)[C@H](Cc1c[nH]cn1)NC(=O)[C@H](CCC(=O)O)NC(=O)[C@H](CS)NC(=O)[C@H](CS)NC(=O)[C@H](CCCCN)NC(=O)[C@@H]1CC(=O)N[C@@H](CCCNC(=N)N)C(=O)N[C@@H]([C@@H](C)O)C(=O)N[C@@H](CC(=O)O)C(=O)N[C@H](Cc2ccc(O)cc2)C(=O)N1)C(N)=O` [technetium-99m labelled] has an uptake ratio of 2.42 (C57 mouse, female, B16/F1 melanoma; intravenous, 2 h, together with: NDP-MSH 10 µg co-injected; baseline: tumour over lung).
`Cn1c(-c2ccc(C(N)=O)cc2F)nnc1C(C)(C)Oc1c(F)cc(Cl)cc1F` has a median AUC(0-inf) of 48 ng·h/mL (young non-Japanese humans, plasma; oral, 2 mg, day 1, single dose).
`COc1ccc(-c2ccc3c(N4CCOC[C@@H]4C)nc(N4CCOC[C@@H]4C)nc3n2)cc1CO`: “apparent clearance (CL/F)” 7.6 mL/h (mice, plasma; intraperitoneal, 10 mg/kg).
With `CCc1cc2cc(O)cc(C(=O)c3cc(Br)c(O)c(Br)c3)c2o1` the microsomal CLint was 11.2 µL/min/mg (metabolic stability; Sprague-Dawley rat, liver microsomes; 1 µM, pH 7.4).
`C[C@H](N)C(=O)N1C[C@H](CCCB(O)O)[C@](N)(C(=O)O)C1` has a median tmax of 6 h (human patients, plasma; oral, 150 mg single dose, cycle 1 day 1).
For `CC(C)C[C@H](NC(=O)[C@H](CCc1ccccc1)NC(=O)CN1CCOCC1)C(=O)N[C@@H](Cc1ccccc1)C(=O)N[C@@H](CC(C)C)C(=O)[C@@]1(C)CO1`, the Vss was 42.5 L (LC-MS; human, plasma; intravenous push, 11 mg/m^2).

Repeated from above:
The concentration of `S=C(NCCCc1c[nH]cn1)NCCCN(Cc1ccc(Cl)c(Cl)c1)c1ccc(Br)cn1` is reported as 2390 ng/mL (male C57BL/6 mouse, plasma; intraperitoneal, 30 mg/kg, 4 h).
`O=C([O-])CN1CCN(CC(=O)[O-])CCN(CC(=O)[O-])C(Cc2ccc([N+](=O)[O-])cc2)CN(CC(=O)[O-])CC1.[67Ga+3]` (stereo not shown) — result for “intact radiolabelled complex”: 97.6 ± 0.3% (RP-TLC; murine plasma; 3 h, 37 °C, 5% CO2).
With `C#C[C@]1(CO)O[C@@H](n2cnc3c(N)nc(F)nc32)C[C@@H]1O` the AUC(0-168 h) was 0.867 µM·h (human, plasma; oral, 10 mg once weekly, week 3).
With `CCCC[C@H](NC(C)=O)C(=O)N[C@H]1CCC(=O)NC[C@@H](C(=O)N[C@@H](Cc2c[nH]c3ccccc23)C(N)=O)NC(=O)[C@H](CCCNC(=N)N)NC(=O)[C@@H](Cc2ccccc2)NC(=O)[C@H](Cc2c[nH]cn2)NC1=O` the CL/F was 298 mL/min (healthy human, both sexes, plasma; subcutaneous, 3.0 mg once daily, day 1, arithmetic mean).
